Results from different studies.
Every numbered part comes from another study and shows a few of its results, in no order.
Chain of UniProt P52564 (whole entry, looked up): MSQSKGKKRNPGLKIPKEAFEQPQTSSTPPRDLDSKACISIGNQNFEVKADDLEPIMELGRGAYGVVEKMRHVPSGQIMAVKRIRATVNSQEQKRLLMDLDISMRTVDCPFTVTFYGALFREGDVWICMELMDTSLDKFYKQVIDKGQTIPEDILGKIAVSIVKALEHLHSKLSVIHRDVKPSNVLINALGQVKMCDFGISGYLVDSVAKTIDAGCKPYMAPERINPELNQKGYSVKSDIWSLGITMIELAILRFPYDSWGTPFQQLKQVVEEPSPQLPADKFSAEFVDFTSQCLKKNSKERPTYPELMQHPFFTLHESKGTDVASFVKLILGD
Chain of UniProt Q9Y4K4 (whole entry, looked up): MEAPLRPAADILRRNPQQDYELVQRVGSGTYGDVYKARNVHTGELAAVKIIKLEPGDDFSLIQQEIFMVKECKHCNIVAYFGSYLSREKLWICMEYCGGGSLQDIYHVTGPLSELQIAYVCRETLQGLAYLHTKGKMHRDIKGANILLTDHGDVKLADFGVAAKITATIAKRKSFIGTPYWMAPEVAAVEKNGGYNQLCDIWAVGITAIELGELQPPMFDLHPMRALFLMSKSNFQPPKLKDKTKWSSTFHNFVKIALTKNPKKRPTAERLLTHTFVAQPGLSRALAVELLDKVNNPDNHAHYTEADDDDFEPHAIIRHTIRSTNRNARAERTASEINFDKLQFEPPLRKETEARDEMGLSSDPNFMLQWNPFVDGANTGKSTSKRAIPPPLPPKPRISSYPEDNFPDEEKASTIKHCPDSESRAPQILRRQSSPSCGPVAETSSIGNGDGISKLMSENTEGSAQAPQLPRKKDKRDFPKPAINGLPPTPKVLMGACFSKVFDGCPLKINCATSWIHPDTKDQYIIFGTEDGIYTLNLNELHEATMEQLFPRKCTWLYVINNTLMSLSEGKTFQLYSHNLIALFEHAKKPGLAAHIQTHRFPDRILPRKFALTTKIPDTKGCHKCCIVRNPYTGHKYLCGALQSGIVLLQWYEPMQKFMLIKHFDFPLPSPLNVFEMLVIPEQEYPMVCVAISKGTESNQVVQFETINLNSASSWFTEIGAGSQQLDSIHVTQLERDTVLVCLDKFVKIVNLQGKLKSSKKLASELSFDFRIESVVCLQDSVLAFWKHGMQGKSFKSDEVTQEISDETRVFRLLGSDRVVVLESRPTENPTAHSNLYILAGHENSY
Chain of UniProt Q6P3R8 (whole entry, looked up): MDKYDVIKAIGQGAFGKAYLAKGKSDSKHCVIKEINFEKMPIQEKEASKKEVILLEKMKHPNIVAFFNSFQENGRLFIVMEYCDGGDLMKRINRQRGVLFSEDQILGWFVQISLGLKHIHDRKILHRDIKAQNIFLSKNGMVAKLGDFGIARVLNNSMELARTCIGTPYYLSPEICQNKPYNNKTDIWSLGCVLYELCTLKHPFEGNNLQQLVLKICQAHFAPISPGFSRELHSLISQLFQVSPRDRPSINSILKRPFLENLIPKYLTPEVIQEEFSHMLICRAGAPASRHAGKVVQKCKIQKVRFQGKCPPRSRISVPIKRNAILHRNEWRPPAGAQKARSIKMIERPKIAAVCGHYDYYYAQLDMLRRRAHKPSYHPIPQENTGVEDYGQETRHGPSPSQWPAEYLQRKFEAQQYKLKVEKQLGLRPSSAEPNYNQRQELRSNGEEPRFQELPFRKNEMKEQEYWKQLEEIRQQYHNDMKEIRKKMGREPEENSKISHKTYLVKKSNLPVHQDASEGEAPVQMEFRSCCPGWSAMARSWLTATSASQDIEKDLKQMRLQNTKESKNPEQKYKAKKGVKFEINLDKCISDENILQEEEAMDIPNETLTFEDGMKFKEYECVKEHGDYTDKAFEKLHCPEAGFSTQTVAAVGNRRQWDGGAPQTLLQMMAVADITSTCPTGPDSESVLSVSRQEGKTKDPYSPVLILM
Chain of UniProt Q04759 (whole entry, looked up): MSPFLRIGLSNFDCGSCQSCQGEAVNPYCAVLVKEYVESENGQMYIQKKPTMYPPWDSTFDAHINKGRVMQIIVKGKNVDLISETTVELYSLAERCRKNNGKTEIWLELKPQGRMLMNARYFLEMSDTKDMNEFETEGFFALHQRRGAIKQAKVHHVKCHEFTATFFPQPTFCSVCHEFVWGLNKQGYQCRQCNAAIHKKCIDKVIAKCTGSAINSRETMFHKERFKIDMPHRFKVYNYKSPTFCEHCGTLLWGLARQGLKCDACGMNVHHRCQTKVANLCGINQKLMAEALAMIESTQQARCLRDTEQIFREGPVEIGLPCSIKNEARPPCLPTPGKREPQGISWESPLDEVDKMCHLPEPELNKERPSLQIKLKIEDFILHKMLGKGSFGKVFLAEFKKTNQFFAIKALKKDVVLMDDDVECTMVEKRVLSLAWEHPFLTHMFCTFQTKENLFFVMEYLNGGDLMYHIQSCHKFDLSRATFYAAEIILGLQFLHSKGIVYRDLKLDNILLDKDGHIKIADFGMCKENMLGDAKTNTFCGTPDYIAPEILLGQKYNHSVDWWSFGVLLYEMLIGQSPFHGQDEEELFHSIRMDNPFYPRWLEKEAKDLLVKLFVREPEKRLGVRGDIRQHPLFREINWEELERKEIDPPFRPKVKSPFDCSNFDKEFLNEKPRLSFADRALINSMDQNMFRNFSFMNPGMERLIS
Chain of UniProt Q8N752 (whole entry, looked up): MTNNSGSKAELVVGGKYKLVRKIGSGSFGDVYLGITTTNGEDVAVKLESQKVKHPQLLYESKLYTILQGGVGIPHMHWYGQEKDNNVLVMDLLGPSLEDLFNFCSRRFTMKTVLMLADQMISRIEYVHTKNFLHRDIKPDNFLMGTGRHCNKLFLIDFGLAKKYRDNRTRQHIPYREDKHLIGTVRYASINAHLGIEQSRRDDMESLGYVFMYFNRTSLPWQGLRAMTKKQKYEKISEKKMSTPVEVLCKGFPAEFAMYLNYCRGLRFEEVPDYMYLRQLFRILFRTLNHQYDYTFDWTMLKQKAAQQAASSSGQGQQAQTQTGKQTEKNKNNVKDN
Chain of UniProt P04049 (whole entry, looked up): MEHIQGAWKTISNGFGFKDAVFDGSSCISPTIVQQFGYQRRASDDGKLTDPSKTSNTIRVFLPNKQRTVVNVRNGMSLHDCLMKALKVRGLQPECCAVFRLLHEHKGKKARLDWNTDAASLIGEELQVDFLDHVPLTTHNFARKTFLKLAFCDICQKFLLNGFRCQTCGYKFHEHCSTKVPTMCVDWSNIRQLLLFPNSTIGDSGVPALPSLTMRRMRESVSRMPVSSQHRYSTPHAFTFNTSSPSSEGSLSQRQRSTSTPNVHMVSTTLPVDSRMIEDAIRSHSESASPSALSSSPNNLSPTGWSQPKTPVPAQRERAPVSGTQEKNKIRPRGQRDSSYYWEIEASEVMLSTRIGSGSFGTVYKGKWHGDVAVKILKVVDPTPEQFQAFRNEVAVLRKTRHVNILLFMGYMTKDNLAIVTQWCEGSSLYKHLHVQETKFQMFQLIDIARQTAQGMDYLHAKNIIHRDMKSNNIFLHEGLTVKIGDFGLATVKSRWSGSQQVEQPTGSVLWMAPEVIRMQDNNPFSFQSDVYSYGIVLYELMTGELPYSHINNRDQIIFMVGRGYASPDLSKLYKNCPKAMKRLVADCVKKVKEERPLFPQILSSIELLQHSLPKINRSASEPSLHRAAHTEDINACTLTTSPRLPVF

Study 1 — effect on: ligand displacement; tested at: 10 µM
Target: Muscarinic acetylcholine receptor M4 (CHRM4, Homo sapiens, UniProt P08173)
Chain of UniProt P08173 (whole entry, looked up): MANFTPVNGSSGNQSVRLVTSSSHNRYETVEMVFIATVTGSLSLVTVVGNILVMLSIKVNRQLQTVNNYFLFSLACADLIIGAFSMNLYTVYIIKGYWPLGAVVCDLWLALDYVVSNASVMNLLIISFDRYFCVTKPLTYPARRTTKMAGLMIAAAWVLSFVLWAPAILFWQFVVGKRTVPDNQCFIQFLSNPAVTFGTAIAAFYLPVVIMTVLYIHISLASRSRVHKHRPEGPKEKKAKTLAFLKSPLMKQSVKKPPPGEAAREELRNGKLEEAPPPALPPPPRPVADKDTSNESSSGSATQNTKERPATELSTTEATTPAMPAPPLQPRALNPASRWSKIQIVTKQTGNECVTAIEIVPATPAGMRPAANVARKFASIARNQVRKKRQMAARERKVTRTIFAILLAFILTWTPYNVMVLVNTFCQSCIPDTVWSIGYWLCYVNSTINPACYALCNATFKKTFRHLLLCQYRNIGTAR
`Cn1nc(C(=O)NCc2ccc(C(=O)O)cc2)cc1-c1ccc2[nH]ccc2c1` has an inhibition of 0.05%.
For `NS(=O)(=O)c1cc(NC(=O)Cc2ccccc2)ccc1Oc1cccc(Cl)c1`, the inhibition was 10.2%.
With `CN1CCN(C(=O)C(C)(C)c2ccc(C(=O)Nc3cn4cc(-c5cc(C(C)(C)C)cc(C(C)(C)C)c5)ccc4n3)cc2)CC1` the inhibition was 0.99%.
`NC(=O)c1ccc2nc(-c3ccc(C4(N)CCC4)cc3)c(-c3ccccc3)n2n1` gave an inhibition of 12.4%.
With `Cn1cc(Cl)c2c(Oc3c(F)cc(Nc4cc(Cl)nc(N)n4)cc3F)ccnc21` the inhibition was -3.76%.
`CNC(=N)NCCC[C@H](NC(=O)[C@H](CC(C)C)NC(=O)NNC(=O)[C@H](Cc1ccccc1)NC(=O)[C@H](CO)NC(=O)[C@H](CC(N)=O)NC(=O)[C@@H](Cc1ccncc1)NC(=O)[C@H](N)Cc1ccc(O)cc1)C(=O)N[C@@H](Cc1ccccc1)C(N)=O` gave an inhibition of 13.8%.
With `CN(C)C(=O)c1sc2nc(N3CCC(S(C)(=O)=O)CC3)cc(C(F)(F)F)c2c1N` the inhibition was 3.63%.
`C[C@@H](c1cccc(C#N)c1)n1cc(Cl)cc(C(N)=O)c1=N` gave an inhibition of -6.48%.
For `Cc1noc([C@H]2C[C@@H](c3ccc(C(F)(F)F)cc3)CN(C(=O)N3CCS(=O)(=O)C3)C2)n1`, the inhibition was -0.58%.
The inhibition of `CN1CCN(c2ccnc(NCCc3ccccc3)n2)CC1` is reported as 25.9%.
With `CC(=O)Nc1ncc(CN2CCC[C@H](Cc3cc(C)nc(C)c3)C2)s1` the inhibition was -5.53%.
For `Nc1cnc(N2CCc3cc(S(=O)(=O)Nc4c(F)cc(Cl)cc4F)cc(N4CCCC4=O)c32)nc1`, the inhibition was 9.99%.
`CC1CCN(c2ccnc(NCc3cn(C)cn3)n2)CC1` has an inhibition of 20.6%.
`COc1cccc(NC(=O)c2nc3scc(CN(C)Cc4ccccc4)c3c(=O)[nH]2)c1` gave an inhibition of -10.1%.
`CN([C@@H]1CCc2c(CC(=O)O)c3ccccc3n2C1)S(=O)(=O)c1ccc(F)cc1` has an inhibition of 24.4%.
The inhibition of `CC[C@H](CC(=O)O)n1c(=O)c2ncccc2n(Cc2cn(C)c3cc(C)cc(C)c23)c1=O` is reported as 9.09%.
`O=C(Nc1ccc(Oc2ccc(F)cc2)cc1)N1CCc2ncccc2[C@H]1c1ccc(F)cc1` gave an inhibition of 9.29%.
`COc1cc(C(=O)O)ncc1C#Cc1ccccc1NS(=O)(=O)c1cccc2c(N(C)C)ccnc12` gave an inhibition of -5.83%.
`c1ccc(C2CCN(c3cnc4c(N5CCOCC5)nccn34)CC2)cc1` gave an inhibition of -5.45%.
With `Nc1nc(NCc2ccccc2)nc(-c2cccc(CO)c2)n1` the inhibition was 12.8%.
With `Nc1nc(NCc2ccccc2)nc(-c2ccccc2CO)n1` the inhibition was -9.42%.
With `c1ccc(N2CCN(Cc3nc4ccccc4[nH]3)CC2)nc1` the inhibition was 4.23%.
With `Cc1c(NC(=O)c2cc(C(N)=O)nc3cc(F)ccc23)c(C(F)(F)F)nn1Cc1ccc(C#N)cc1` the inhibition was -4.15%.
For `C[C@H](c1ccc(F)cc1)N(Cc1cccc(C(=O)O)c1)C(=O)c1cnc2ccccc2c1`, the inhibition was -13.1%.
With `CO[C@H]1CC[C@H](CNc2ccc(S(=O)(=O)NC(=O)c3ccc(N4CCN(CC5=C(c6ccc(Cl)cc6)CC(C)(C)CC5)CC4)cc3Oc3cnc4[nH]ccc4c3)cc2[N+](=O)[O-])CC1` the inhibition was -0.31%.

Study 2 — tested at: 1 µM
SMILES: CN1CCN(C(=O)c2ccc(NC(=O)Nc3ccc(N(C)c4ccnc(Nc5ccc(CS(C)(=O)=O)cc5)n4)cc3)cc2)CC1
The remaining binding was 50% (PAK2 (Homo sapiens, UniProt Q13177); competitive binding panel; relative to: vehicle).
For MAP2K6 (Homo sapiens, UniProt P52564); competitive binding panel, item: MEK6; relative to: vehicle: remaining binding read 82%.
CDK15 (Homo sapiens, UniProt Q96Q40); competitive binding; PFTAIRE2 — remaining binding: 100%.
The remaining binding was 85% (CASK (Homo sapiens, UniProt O14936); competitive binding panel; relative to: vehicle).
For CSNK1A1L (Homo sapiens, UniProt Q8N752); competitive binding panel; relative to: vehicle: remaining binding read 100%.
MAPK7 (Homo sapiens, UniProt Q13164); competitive binding panel, item: ERK5; relative to: vehicle — remaining binding: 100%.
For BRSK1 (Homo sapiens, UniProt Q8TDC3); competitive binding panel; relative to: vehicle: remaining binding read 100%.
The remaining binding was 20% (ABL1 (Homo sapiens, UniProt P00519, Y253F); competitive binding panel; relative to: vehicle).
The remaining binding was 100% (STK38L (Homo sapiens, UniProt Q9Y2H1); competitive binding panel, item: NDR2; relative to: vehicle).
The remaining binding was 54% (STK38 (Homo sapiens, UniProt Q15208); competitive binding panel, item: NDR1; relative to: vehicle).
For NEK5 (Homo sapiens, UniProt Q6P3R8); competitive binding panel; relative to: vehicle: remaining binding read 82%.
The remaining binding was 32% (MAP4K5 (Homo sapiens, UniProt Q9Y4K4); competitive binding panel; relative to: vehicle).
For DAPK3 (Homo sapiens, UniProt O43293); competitive binding panel; relative to: vehicle: remaining binding read 100%.
For PIM2 (Homo sapiens, UniProt Q9P1W9); competitive binding panel; relative to: vehicle: remaining binding read 100%.
PRKCQ (Homo sapiens, UniProt Q04759); competitive binding panel; relative to: vehicle — remaining binding: 51%.
The remaining binding was 90% (RAF1 (Homo sapiens, UniProt P04049); competitive binding panel; relative to: vehicle).

Study 3 — effect on: enzyme activity; mode: inhibitor; tested at: 0.5 µM; relative to: control
Target: Dual specificity protein kinase TTK (TTK, Homo sapiens, UniProt P33981)
Chain of UniProt P33981 (whole entry, looked up): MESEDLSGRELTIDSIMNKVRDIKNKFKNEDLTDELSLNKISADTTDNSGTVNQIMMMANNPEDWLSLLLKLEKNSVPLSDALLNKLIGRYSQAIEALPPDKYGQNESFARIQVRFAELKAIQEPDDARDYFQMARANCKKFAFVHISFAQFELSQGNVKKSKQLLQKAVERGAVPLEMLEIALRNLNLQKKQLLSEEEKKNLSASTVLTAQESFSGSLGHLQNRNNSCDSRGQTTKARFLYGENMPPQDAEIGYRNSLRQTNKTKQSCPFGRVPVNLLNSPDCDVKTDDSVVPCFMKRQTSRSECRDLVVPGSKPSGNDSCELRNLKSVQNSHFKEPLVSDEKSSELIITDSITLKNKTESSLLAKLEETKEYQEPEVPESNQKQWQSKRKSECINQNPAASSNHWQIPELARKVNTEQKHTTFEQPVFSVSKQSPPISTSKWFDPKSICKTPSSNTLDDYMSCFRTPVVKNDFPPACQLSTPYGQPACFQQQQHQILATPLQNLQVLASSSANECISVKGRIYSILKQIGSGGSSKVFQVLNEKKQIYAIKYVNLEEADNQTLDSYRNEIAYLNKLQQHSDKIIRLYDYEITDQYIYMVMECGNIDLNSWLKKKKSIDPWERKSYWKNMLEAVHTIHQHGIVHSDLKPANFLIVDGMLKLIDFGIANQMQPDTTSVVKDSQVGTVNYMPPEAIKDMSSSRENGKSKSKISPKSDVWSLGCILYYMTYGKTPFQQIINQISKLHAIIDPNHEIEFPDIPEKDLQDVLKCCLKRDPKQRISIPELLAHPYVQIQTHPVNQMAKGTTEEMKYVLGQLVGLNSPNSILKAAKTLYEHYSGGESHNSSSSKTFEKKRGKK
`Clc1ccc(Nc2nnc(Cc3ccncc3)c3ccccc23)cc1` gave a remaining activity of 108%.
For `FC(F)(F)c1ccc(/C=C/c2nc(COc3ccc(CCCCn4ccnn4)cc3)co2)cc1`, the remaining activity was 111%.
The remaining activity of `CC(C)(C)c1nc2c3cc[nH]c(=O)c3c3cc(F)ccc3c2[nH]1` is reported as 65.3%.
For `O=Nc1c(-c2c(O)[nH]c3ccccc23)[nH]c2ccccc12`, the remaining activity was 68%.
With `O=C(c1ccccc1)c1ccc(N2CCOCC2)cc1O` the remaining activity was 104%.
For `CCN(CC)CCCCN1c2ccccc2Oc2ccc(Cl)cc21`, the remaining activity was 104%.
With `N#C/C(=C(/N)SC1C=CC=CC1)c1cccc(C(O)c2ccncc2)c1` (stereo not drawn) the remaining activity was 111%.
`c1cc(-c2cnn3cc(-c4ccc(OCCN5CCCCC5)cc4)cnc23)ccn1` has a remaining activity of 82.8%.
`C[C@@H](N)[C@H]1CC[C@H](C(=O)Nc2ccncc2)CC1` has a remaining activity of 102%.
For `O=C(O)/C=C/c1cc(Br)c(Br)c(Br)c1Br`, the remaining activity was 98.1%.
For `CC(C)n1cnc2c(Nc3cccc(Cl)c3)nc(NCCO)nc21`, the remaining activity was 82.5%.
`NC(=O)c1cccc(-c2cc(Nc3ccc(OC(F)(F)F)cc3)ncn2)c1` gave a remaining activity of 91.4%.
`Nc1nc(Nc2ccc(S(N)(=O)=O)cc2)nn1C(=S)Nc1c(F)cccc1F` gave a remaining activity of 60.6%.
The remaining activity of `COc1cc2c(Nc3ccc(Br)cc3F)ncnc2cc1OCC1CCN(C)CC1` is reported as 95.1%.
`COc1cc2c(N3CCN(C(=O)Nc4ccc(OC(C)C)cc4)CC3)ncnc2cc1OCCCN1CCCCC1` has a remaining activity of 100%.
With `O=C1c2ccccc2-c2nc3nnnn3nc21` the remaining activity was 125%.
`CC(C)N(CCC(=O)c1ccc2ccccc2c1)Cc1ccccc1` has a remaining activity of 96%.
For `CNc1cc2c(Nc3cccc(Br)c3)ncnc2cn1`, the remaining activity was 100%.
`CCCCc1c(-c2ccc(O)cc2)[nH]c2nccnc12` gave a remaining activity of 91.6%.
`NC(=O)c1ccc(-c2nc(-c3ccc4c(c3)OCCO4)c(-c3ccccn3)[nH]2)cc1` has a remaining activity of 105%.
The remaining activity of `N#CC(c1ccnc(NCCc2cccnc2)n1)c1nc2ccccc2s1` (stereo not drawn) is reported as 80.9%.
`O=C1NC(=O)/C(=C/c2ccc3c(c2)OC(F)(F)O3)S1` gave a remaining activity of 102%.
With `O=c1c(-c2ccc(F)cc2)c(-c2ccncc2)[nH]n1-c1ccc(Cl)cc1` the remaining activity was 110%.

Study 4 — cell line: HaCaT; tested at: 100 µM; time: 18 h
`OC[C@H]1O[C@@H](n2cnc3c(O)ncnc32)[C@H](O)[C@@H]1O` gave a viability of 94.2%.
With `CN(C)CC[C@@H](c1ccc(Cl)cc1)c1ccccn1` the viability was 114%.
The viability of `OCCOCCN1CCN(C(c2ccccc2)c2ccc(Cl)cc2)CC1` (stereo not drawn) is reported as 110%.
`CCCCc1oc2ccc(NS(C)(=O)=O)cc2c1C(=O)c1ccc(OCCCN(CCCC)CCCC)cc1` has a viability of 20.7%.
The viability of `CN(C)CCc1c[nH]c2ccc(CS(=O)(=O)N3CCCC3)cc12` is reported as 88.4%.
The viability of `Cc1cn(-c2cc(NC(=O)c3ccc(C)c(Nc4nccc(-c5cccnc5)n4)c3)cc(C(F)(F)F)c2)cn1` is reported as 20.6%.
With `C#C[C@]1(O)CC[C@H]2[C@@H]3CCc4cc(OC)ccc4[C@H]3CC[C@@]21C` the viability was 28.2%.
The viability of `NCCc1ccc(O)c(O)c1` is reported as 153%.
For `CCN(CC)CCNC(=O)c1cc(Br)c(N)cc1OC`, the viability was 111%.
For `NC[C@H]1O[C@H](O[C@H]2[C@H](O)[C@@H](O[C@H]3O[C@H](CO)[C@@H](O)[C@H](N)[C@H]3O)[C@H](N)C[C@@H]2N)[C@H](O)[C@@H](O)[C@@H]1O`, the viability was 111%.
The viability of `CCOc1ccc(Cc2nccc3cc(OCC)c(OCC)cc23)cc1OCC` is reported as 48.8%.
The viability of `COc1ccc(NS(=O)(=O)c2ccc(N)cc2)nn1` is reported as 61.8%.
For `Cc1onc(-c2ccccc2)c1-c1ccc(S(N)(=O)=O)cc1`, the viability was 93%.
The viability of `O=c1ccc2ccc(OCCCCN3CCN(c4cccc5sccc45)CC3)cc2[nH]1` is reported as 23.5%.
The viability of `CC(=O)N(CC(O)CO)c1c(I)c(C(=O)NCC(O)CO)c(I)c(C(=O)NCC(O)CO)c1I` (mixture of isomers) is reported as 110%.
For `CC1=C(/C=C/C(C)=C/C=C/C(C)=C\C(=O)O)C(C)(C)CCC1`, the viability was 91.6%.
The viability of `COc1cc2ccc(=O)oc2c(O)c1O` is reported as 84.9%.
The viability of `CCCCNc1cc(C(=O)O)cc(S(N)(=O)=O)c1Oc1ccccc1` is reported as 110%.
For `COCC(=O)Nc1c(I)c(C(=O)NCC(O)CO)c(I)c(C(=O)N(C)CC(O)CO)c1I` (mixture of isomers), the viability was 110%.
`CC(=O)O[C@]1(C(C)=O)CC[C@H]2[C@@H]3C=C(Cl)C4=CC(=O)CC[C@]4(C)[C@H]3CC[C@@]21C` gave a viability of 53.3%.

Some of these lines once more (study 1):
`COc1cc(C(=O)O)ncc1C#Cc1ccccc1NS(=O)(=O)c1cccc2c(N(C)C)ccnc12` gave an inhibition of -5.83%.
`c1ccc(C2CCN(c3cnc4c(N5CCOCC5)nccn34)CC2)cc1` gave an inhibition of -5.45%.
With `Nc1nc(NCc2ccccc2)nc(-c2cccc(CO)c2)n1` the inhibition was 12.8%.
With `Nc1nc(NCc2ccccc2)nc(-c2ccccc2CO)n1` the inhibition was -9.42%.
With `c1ccc(N2CCN(Cc3nc4ccccc4[nH]3)CC2)nc1` the inhibition was 4.23%.
With `Cc1c(NC(=O)c2cc(C(N)=O)nc3cc(F)ccc23)c(C(F)(F)F)nn1Cc1ccc(C#N)cc1` the inhibition was -4.15%.
For `C[C@H](c1ccc(F)cc1)N(Cc1cccc(C(=O)O)c1)C(=O)c1cnc2ccccc2c1`, the inhibition was -13.1%.
